Results pooled from the literature.
Every numbered part comes from another study and shows a few of its results, in no order. Changes are numbered by the printed parent chain.

Sample 1 — method: protein-binding microarray; form: double-stranded DNA, one strand shown; medium: in vitro; concentration: 2200 nM top; notes: 60-bp whole probe; together with: salmon DNA 0.4 mg/ml; relative to: random background probes; direction: higher = stronger binding; measurement: fitted relative affinity; shared flanks, not repeated: GCCTAGCAC … GTCTTGATTCGCTTGACGCTGCTG
Target: Interferon regulatory factor 7, full length, phosphomimetic (IRF7, Homo sapiens, UniProt Q92985, residues 1-503, S471D/S472D/S475D/S476D/S477D/S483D/S484D/S487D)
Target sequence (chain): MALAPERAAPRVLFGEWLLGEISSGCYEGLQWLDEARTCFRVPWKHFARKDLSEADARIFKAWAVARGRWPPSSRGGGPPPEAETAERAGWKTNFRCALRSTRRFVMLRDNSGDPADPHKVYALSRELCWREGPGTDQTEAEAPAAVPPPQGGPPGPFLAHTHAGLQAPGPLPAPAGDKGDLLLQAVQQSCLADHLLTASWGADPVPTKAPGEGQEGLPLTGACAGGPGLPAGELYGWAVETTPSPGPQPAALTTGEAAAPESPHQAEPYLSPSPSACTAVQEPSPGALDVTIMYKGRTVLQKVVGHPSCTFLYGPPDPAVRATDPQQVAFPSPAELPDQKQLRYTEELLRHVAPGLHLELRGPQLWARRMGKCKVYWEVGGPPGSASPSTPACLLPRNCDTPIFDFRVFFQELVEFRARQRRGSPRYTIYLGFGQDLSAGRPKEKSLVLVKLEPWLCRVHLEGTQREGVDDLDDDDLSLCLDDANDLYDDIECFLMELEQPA
TTAGGTTTCCTACGGCTTTAGTGCTAG: 0.759 z-score
TCACGTAAGCAAAAATGACTGTGCTAG: -0.38 z-score
GACGATCTCAGTATCGACACGTGCTAG: 0.119 z-score
GACGAACTTAGACTGGAGACGTGCTAG: -0.0746 z-score
TTAGGTATCCCTCTCCTTTAGTGCTAG: 1.18 z-score
GACGAACTGGGTCTCGAGACGTGCTAG: -0.17 z-score
TTAGGCTTCGGGTTTCGGTTAGTGCTA: 3.6 z-score
CTGTTCTGCAGACTTCTGTCGTGCTAG: 1.88 z-score
GTAGGACTGCTTATCCTTTAGTGCTAG: 0.0675 z-score
GACGAAATCGGGTTTCGAGACGTGCTA: 1.98 z-score
GATTCTTTCGATGCTAAACGAGTGCTA: 1.69 z-score
TTAGGTATGGGTATCGGTTAGTGCTAG: 0.256 z-score
GTGTATATGACAATGATGTTGTGCTAG: 0.677 z-score
TTCGGACTGCTACTGCTTTAGTGCTAG: 0.082 z-score
TTAGGCTTCGGGACTGGGTTAGTGCTA: -0.54 z-score
TTAGGTATCCTTATCATTTAGTGCTAG: 0.46 z-score
CATTTTCTTTAACTCATTCTGTGCTAG: 2.36 z-score
GACGGTATCGGACTGGCGACGTGCTAG: -0.363 z-score
GTCGGTTTCCTTTCCCTGACGTGCTAG: 6.22 z-score
TGCTTTTTAGAAATTTTTTTTGTGCTA: -0.0995 z-score
TTAGGACTGGGACTGGGGTAGTGCTAG: -1.03 z-score
GACTATATCAGTCTCGAGACGTGCTAG: 0.449 z-score
TTAGGTATCGGGTACCGGTTAGTGCTA: -0.0851 z-score

Sample 2 — method: DHFR PCA, deep sequencing; medium: yeast; together with: (+)-ABA 200 µM; relative to: wild-type fitted maximum; direction: higher = stronger binding; measurement: relative binding score
Target: ABI1, truncated, D143A, DHFR fusion (Arabidopsis thaliana)
Notes: methotrexate growth selection, single substitutions
Starting sequence: PYL1, truncated, DHFR fusion (Arabidopsis thaliana); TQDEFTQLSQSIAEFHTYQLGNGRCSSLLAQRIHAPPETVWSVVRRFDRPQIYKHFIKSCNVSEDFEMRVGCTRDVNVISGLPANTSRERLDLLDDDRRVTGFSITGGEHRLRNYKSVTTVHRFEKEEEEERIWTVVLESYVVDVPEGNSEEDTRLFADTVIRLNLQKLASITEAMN; partner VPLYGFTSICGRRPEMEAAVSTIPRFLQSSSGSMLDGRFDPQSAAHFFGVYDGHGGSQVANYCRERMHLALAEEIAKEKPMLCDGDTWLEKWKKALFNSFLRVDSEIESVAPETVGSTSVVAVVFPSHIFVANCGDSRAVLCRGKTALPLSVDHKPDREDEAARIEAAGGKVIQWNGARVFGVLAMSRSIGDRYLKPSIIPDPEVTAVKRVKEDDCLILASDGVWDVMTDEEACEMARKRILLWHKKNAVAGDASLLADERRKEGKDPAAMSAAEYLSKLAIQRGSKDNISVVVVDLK
N61L: 99.7%
A84Y: 64.7%
D153H: 77%
L138R: 16.4%
A35S: 88.4%
V161D: -3.07%
R90F: 41.5%
A35H: 0.57%
G81P: 40.1%
R90G: 15.5%
T17H: 94.9%
V43M: 93.6%
W41T: -1.2%
H16E: -10.1%
Q31E: 82.4%
S87M: 12.7%

Sample 3 — target: CREB3, bZIP domain (human); method: DHFR protein complementation; medium: yeast; relative to: wild-type JUN-FOS pair; direction: higher = stronger binding; measurement: binding fitness
Notes: single substitutions, most at no-binding floor
Starting sequence: JUN, bZIP domain (human); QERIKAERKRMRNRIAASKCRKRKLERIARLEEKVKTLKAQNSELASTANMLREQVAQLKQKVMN; partner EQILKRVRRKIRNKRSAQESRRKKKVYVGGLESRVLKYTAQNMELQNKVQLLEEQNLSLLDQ
L31Q: -1.6 natural log
L45G: -1.5 natural log
L38Q: -1.46 natural log
A29D: -1.18 natural log
I28A: -1.47 natural log
A57P: -1.51 natural log
L31A: -1.42 natural log
I28Y: -1.45 natural log
V35E: -1.41 natural log
M51E: -1.4 natural log
R30V: -1.38 natural log
A57N: -1.64 natural log
S47H: -1.35 natural log
E44M: -1.51 natural log
V56G: -1.47 natural log
A40T: -1.23 natural log
A57H: -1.45 natural log
L31G: -1.51 natural log
R30T: -1.09 natural log
A57L: -1.38 natural log
A46D: -1.51 natural log

Sample 4 — method: protein binding microarray; form: double-stranded DNA, one strand shown; medium: in vitro; concentration: not given; relative to: not given; direction: higher = stronger binding; measurement: E-score
Target: Histone acetyltransferase KAT6A, both winged helices, GST fusion (KAT6A, Homo sapiens, UniProt Q92794, residues 1-181)
Notes: 8-mer, flanks averaged, mean of 2 arrays, mostly near background
Residues (chain): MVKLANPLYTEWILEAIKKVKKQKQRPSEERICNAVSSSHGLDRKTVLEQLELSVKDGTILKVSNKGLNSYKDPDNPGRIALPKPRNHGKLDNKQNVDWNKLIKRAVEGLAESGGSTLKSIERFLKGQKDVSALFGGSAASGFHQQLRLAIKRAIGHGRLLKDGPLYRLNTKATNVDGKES
TACCAGAA: -0.0755
AAGGCATT: -0.289
GTCGCCAC: 0.0278
GAATGGTA: -0.283
ATTATTCA: -0.155
GATTTTAC: -0.061
AGCTAGTA: -0.13
CGCAACGC: 0.276
AACAAGAC: -0.0727
AAGCTCGT: -0.198
CGTGGCAA: -0.0108
ACGCGCCT: 0.22
ACTTAGCT: -0.269
GGTAGGTA: -0.077
TACACAAA: 0.0291
ATGATTGG: -0.15

Sample 5 — target: human cyclin A2; method: competitive growth deep sequencing; form: peptide; organism: Saccharomyces cerevisiae; strain: cyclin A2-Cln2 fusion strain; notes: peptide tiling library; direction: direction not given; measurement: enrichment score
IVLICAKRSLCAAFSV: -0.563
VLVRTSACRSLFGPVD: 1.61
FQDSGYNELKSCSFDN: 0.512
TARRIFQEPTEPKTKA: -0.774
PKRAKRKLYTSEISSP: 0.622
PKNAKRNLSSEFAN: 2.24
KPKPVKPVTFSTGIKM: 1.32
KRNLLNEFDRII: 3.3
DGCSPIKNWSPMRL: 0.128
SAVPLILPQAPSGPSY: 1.6
SMTDFYHSKRRLIFSK: 0.625
DTERAHSTLDEDLERW: 0.26
GLPDFVFQQQPVESEA: 1.33
PARRRLRLSVDEVSSP: 1.1
KPHVSDEEEEEPPFYH: 1.05
SSEVARHLLFQSHM: -0.9
PAKRRLELGE: 2.56

Sample 6 — method: RNA Bind-n-Seq; form: RNA; medium: in vitro; concentration: 365 nM; relative to: no-protein control; direction: higher = stronger binding; measurement: RBNS enrichment (R)
Target: RNA binding protein fox-1 homolog 2, RRM domain, GST-SBP tag (RBFOX2, Homo sapiens, UniProt O43251-10, residues 100-194)
Notes: natural RNA segment, single round, ends assumed
Shared flanks, not repeated: GGGAGUUCUACAGUCCGACGAUC … UGGAAUUCUCGGGUGCCAA
Construct (chain): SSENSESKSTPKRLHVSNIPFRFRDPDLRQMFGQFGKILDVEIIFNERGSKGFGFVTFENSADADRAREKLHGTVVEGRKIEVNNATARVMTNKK
AUGUGGUAUGUCACUGCUGAAGCCUUUUCCUGUUUUAGUAAUAUCUUAGGCACUAUUGUCUUUUGUCUUCCAGAGUAACAUAUCUGGGCCCACCUUUCUUGCACACUGUG: 1.45
AAAGUCAUGGGACCACUUCUAGAAAUCUUUCAGCUGUCAGGCCUGUCAGUCUCAUGACAGUUUGUUGGUUGUGCCAAACACUUUAUUUGGGAAAGGAAAGCCCAGAUUUG: 0.264
UGCUGGAUAGUACCCAAAUCACUUAAAACCUGUUUCCAUUCGCUUUUUACUUAAAAAUAAACAUUUGCGAGAAGUUACCAAGGCAGCUCUUGUCCUCAGAAGGAACCUGC: 1.07
AAUUUGUAACUAAUUUUGUACGUAUGAAUGAAAUCUUUGACCUCUGUCGAGGUUUGCAAAGACUGACUUCAAACUACUGUACGUUUUUUUCAAGUGCUAAAAAAAAAAUU: 0.488
CCUUCACGUUGUAAAUAUGUUUUGUAGAGUGAAGCCAUGGGAAGCCAUGUGUAACAGAGCUUAGACAUCCAAAACUAAUCAAUGCUGAGGUGGCUAAAUACCUAGCCUUU: 0.31
UCAUCAUAGCUGGCACCAGCGCCUAUGCUCGCCUCAUUGACUACGCCCGCAUGAGAGAGGUGUGUGAUGAAGUCAAAGCACACCUGCUGGCAGACAUGGCCCACAUCAGU: 1.28
GAGGCAGAGCCUGAUGACGAUCAUUUUUCCAUUGGCGUGAGCUCCCGCCUGGAUGGACUGAGGAAUCGUGGGCCAGGCUGCACCUGGGAUUCCUUGCGGAAUUCUGUGGG: 0.579
GGUUUAAAGCUUUUCAAGAACUGGGCUAAAACUCAUCCAGUUUAUCUACAGAAGCUGAAAACAGGCGUUUUAGAUAUUGGUAUAUUGGUAUAUGAUAUGGUAUGAUGCUU: 0.521
CGUGUGGGUGGCACCCUGAGGUCAGGGGAUCCUAAGGGUGUCCUUCCAGAGACGGUGUUUCCAGGGGGAGGACCGCCCCCGCUUCCAGAUCCCCGGCCCCGGCUGUGACU: 0.536
UUCUACUCUUAAUACUUCACUGUGAUGUUAACUUGGAAGACCUGCUGAAGAUUAGUCUUUUAAUUUUAGACCAUUAUAUCUGCUGAGCACAGGAUUCUUAUCAUUUGUAA: 0.444
ACUCAUUUUUUGUAUUUUUAGUAGAGAAGGGGUUUUACCGUGUUAGCCAGGCUGGUCUUGAACUCCUGACCUUGGGUGAUCCACCUGCCUCAGCCUCCCAAAGUGCUGGG: 0.633
AGCACAACAGGGAUGGUCGUCGGCAUUGUGGCUGCUGCCGCCCUCUGCAUCUUGAUCCUCCUGUACGCCAUGUACAAGUACAGGAACAGGGACGAGGGGUCCUAUCAAGU: 0.338
